Assay results collected from several papers.
Compare with care: the assays were run in different laboratories. Several values in a cell are separate wells, animals, samples, runs or records. Numbers after ± are the reported error.
U2AF2: U2AF2 148-342 (Homo sapiens, UniProt P26368)
Sequence of UniProt P26368 (whole entry, looked up): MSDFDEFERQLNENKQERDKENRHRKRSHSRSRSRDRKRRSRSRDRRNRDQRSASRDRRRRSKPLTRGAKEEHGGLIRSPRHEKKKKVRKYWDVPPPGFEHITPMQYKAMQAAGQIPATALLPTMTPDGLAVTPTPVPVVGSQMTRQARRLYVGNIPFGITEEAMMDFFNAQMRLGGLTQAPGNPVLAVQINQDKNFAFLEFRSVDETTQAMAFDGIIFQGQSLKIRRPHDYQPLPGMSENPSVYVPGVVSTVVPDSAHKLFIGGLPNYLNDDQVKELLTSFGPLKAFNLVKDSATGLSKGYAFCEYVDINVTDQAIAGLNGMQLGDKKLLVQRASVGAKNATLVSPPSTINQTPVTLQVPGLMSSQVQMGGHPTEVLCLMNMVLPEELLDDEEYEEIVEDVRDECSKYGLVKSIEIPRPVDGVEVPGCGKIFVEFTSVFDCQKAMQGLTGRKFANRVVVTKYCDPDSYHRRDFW
B1: human DDX17; sequence looked up; chain MPTGFVAPILCVLLPSPTREAATVASATGDSASERESAAPAAAPTAEAPPPSVVTRPEPQALPSPAIRAPLPDLYPFGTMRGGGFGDRDRDRDRGGFGARGGGGLPPKKFGNPGERLRKKKWDLSELPKFEKNFYVEHPEVARLTPYEVDELRRKKEITVRGGDVCPKPVFAFHHANFPQYVMDVLMDQHFTEPTPIQCQGFPLALSGRDMVGIAQTGSGKTLAYLLPAIVHINHQPYLERGDGPICLVLAPTRELAQQVQQVADDYGKCSRLKSTCIYGGAPKGPQIRDLERGVEICIATPGRLIDFLESGKTNLRRCTYLVLDEADRMLDMGFEPQIRKIVDQIRPDRQTLMWSATWPKEVRQLAEDFLRDYTQINVGNLELSANHNILQIVDVCMESEKDHKLIQLMEEIMAEKENKTIIFVETKRRCDDLTRRMRRDGWPAMCIHGDKSQPERDWVLNEFRSGKAPILIATDVASRGLDVEDVKFVINYDYPNSSEDYVHRIGRTARSTNKGTAYTFFTPGNLKQARELIKVLEEANQAINPKLMQLVDHRGGGGGGGGRSRYRTTSSANNPNLMYQDECDRRLRGVKDGGRRDSASYRDRSETDRAGYANGSGYGSPNSAFGAQAGQYTYGQGTYGAAAYGTSSYTAQEYGAGTYGASSTTSTGRSSQSSSQQFSGIGRSGQQPQPLMSQQFAQPPGATNMIGYMGQTAYQYPPPPPPPPPSRK
Sequence of UniProt P13393 (whole entry, looked up): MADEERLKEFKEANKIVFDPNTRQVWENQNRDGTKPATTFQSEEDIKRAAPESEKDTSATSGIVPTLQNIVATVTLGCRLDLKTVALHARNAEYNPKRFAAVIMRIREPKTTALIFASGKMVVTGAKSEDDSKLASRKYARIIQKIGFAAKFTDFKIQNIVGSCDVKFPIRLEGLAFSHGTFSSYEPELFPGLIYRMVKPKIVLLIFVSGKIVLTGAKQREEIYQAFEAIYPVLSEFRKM

Substance | target | test | system | setting | scale | endpoint | value
MAPVLYLQDKSSN | DnaK (Escherichia coli) | fluorescence polarization | peptide | 25 µM, 30 °C, together with: ATP | – | bound fraction | 97.6%
Relaxin | RXFP1 signalosome | co-immunoprecipitation, refers to: PDE4D3, PKA, β-arrestin-2 | HEK293 | 10 nM, 5 min | – | decrease in association | 50%
GSGAGSETKM | construct, MBP fusion, human SCRIB, PDZ 3-4 | surface plasmon resonance | peptide | concentration not given | higher = stronger binding | normalised SPR binding response | 12 normalised RU
phosphatidylinositol 3,4,5-trisphosphate | adenosine A2A receptor thermostabilised | equilibrium dialysis LC-MS | – | concentration not given | baseline: no protein | log2 fold change | -0.316
GSGAGRETEV | construct, MBP fusion, human SCRIB, PDZ 3-4 | automated holdup | peptide, crude extract | concentration not given, uncorrected, unit not given | baseline: biotin control resin, higher = stronger binding | binding intensity | 0.628
GUUCUCUAU (ssRNA) | U2AF2 | sequencing of bound RNA | RNA | motif only | – | Kd | 9.49 µM
PMESGICTIV | construct, MBP fusion, human SCRIB, PDZ 3-4 | surface plasmon resonance | peptide | concentration not given | higher = stronger binding | normalised SPR binding response | 11.7 normalised RU
human GAPDH | PP6C (human) | co-immunoprecipitation, IP-MS | CYB5R4 knockout cells | concentration not given | baseline: CYB5R4 knockout over parental | log2 fold change | 0.58
VVVGAVGVGK | HLA-A*11:01 peptide-β2M single-chain trimer | western blot, refers to: pMHC-I | peptide, 293T cells | 12 h, unit not given, together with: 100 µg/mL cycloheximide | baseline: time zero | remaining protein | 0.89 and 0.923
oxypaeoniflorin | Nrf2 | Nrf2 induction, inducer | – | – | baseline: control | fold induction | 0.76 fold
AUUAUUGAA (ssRNA) | U2AF2 | sequencing of bound RNA | RNA | motif only | – | Kd | 3.44 µM
human heat shock protein beta-1 | PP6C (human) | co-immunoprecipitation, IP-MS | CYB5R4 knockout cells | concentration not given | baseline: CYB5R4 knockout over parental | log2 fold change | 0.51
SVWLRKETRV | construct, MBP fusion, human SCRIB, PDZ 3-4 | surface plasmon resonance | peptide | concentration not given | higher = stronger binding | normalised SPR binding response | 97.1 normalised RU
B1 (human DDX17) | PP6C (human) | co-immunoprecipitation, IP-MS | CYB5R4 knockout cells | concentration not given | baseline: CYB5R4 knockout over parental | log2 fold change | -0.23
VVVGASGVGK | HLA-A*11:01 peptide-β2M single-chain trimer | western blot, refers to: pMHC-I | peptide, 293T cells | 12 h, unit not given, together with: 100 µg/mL cycloheximide | baseline: time zero | remaining protein | 0.812 and 0.759 and 0.774
human HuR | PP6C (human) | co-immunoprecipitation, IP-MS | CYB5R4 knockout cells | concentration not given | baseline: CYB5R4 knockout over parental | log2 fold change | -1.81
GSGAGIESNV | construct, MBP fusion, human SCRIB, PDZ 3-4 | automated holdup | peptide, crude extract | concentration not given, corrected by standard peak, unit not given | baseline: biotin control resin, higher = stronger binding | binding intensity | 0.254
human epiplakin | PP6C (human) | co-immunoprecipitation, IP-MS | CYB5R4 knockout cells | concentration not given | baseline: CYB5R4 knockout over parental | log2 fold change | 0.45
QGRWDHETIV | construct, MBP fusion, human SCRIB, PDZ 3-4 | automated holdup | peptide, crude extract | concentration not given, uncorrected, unit not given | baseline: biotin control resin, higher = stronger binding | binding intensity | 0.143
human histone deacetylase 2 | PP6C (human) | co-immunoprecipitation, IP-MS | CYB5R4 knockout cells | concentration not given | baseline: CYB5R4 knockout over parental | log2 fold change | -0.37
TCCTGAAGGAGCGCCTATAAAAGGTCCTATCGTCGTCAAGTCAATCGGTCC (dsDNA; blunt; 5'-amino-C6 primer) | SPT15 full length assumed (Saccharomyces cerevisiae, UniProt P13393) | EMSA | double-stranded DNA, one strand shown | – | – | Kd | 0.0042 ± 0.0016 µM

Repeated from above:
Substance | target | test | system | setting | scale | endpoint | value
GUUCUCUAU (ssRNA) | U2AF2 | sequencing of bound RNA | RNA | motif only | – | Kd | 9.49 µM
PMESGICTIV | construct, MBP fusion, human SCRIB, PDZ 3-4 | surface plasmon resonance | peptide | concentration not given | higher = stronger binding | normalised SPR binding response | 11.7 normalised RU
human GAPDH | PP6C (human) | co-immunoprecipitation, IP-MS | CYB5R4 knockout cells | concentration not given | baseline: CYB5R4 knockout over parental | log2 fold change | 0.58
